Results collected from several papers.
Protocols differ between the studies behind these lines. “And” joins repeats or separate records; there may be more than shown. ± marks the error that the study gave.
Chain of UniProt P04062 (whole entry, unmodified, looked up): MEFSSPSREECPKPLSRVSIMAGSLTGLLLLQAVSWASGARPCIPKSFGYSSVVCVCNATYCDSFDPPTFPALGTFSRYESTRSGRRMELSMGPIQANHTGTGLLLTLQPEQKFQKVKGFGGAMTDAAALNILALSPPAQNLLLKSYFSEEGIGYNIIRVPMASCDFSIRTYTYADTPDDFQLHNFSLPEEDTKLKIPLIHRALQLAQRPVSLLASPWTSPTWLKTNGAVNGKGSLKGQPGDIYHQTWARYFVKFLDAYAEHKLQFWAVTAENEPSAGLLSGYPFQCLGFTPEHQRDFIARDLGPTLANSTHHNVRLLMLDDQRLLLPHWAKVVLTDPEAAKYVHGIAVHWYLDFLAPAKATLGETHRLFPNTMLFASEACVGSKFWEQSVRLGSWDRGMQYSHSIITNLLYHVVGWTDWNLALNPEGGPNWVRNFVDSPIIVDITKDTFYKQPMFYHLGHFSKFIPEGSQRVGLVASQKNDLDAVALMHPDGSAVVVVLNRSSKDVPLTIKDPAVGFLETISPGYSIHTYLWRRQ

SMILES	tested on	assay	test system	setting	how to read	endpoint	value
CC[C@H](C)[C@H](NC(=O)[C@H](CCCCN)NC(=O)[C@H](CCC(=O)O)NC(=O)[C@H](CO)NC(=O)[C@H](Cc1ccccc1)NC(=O)[C@H](CC(C)C)NC(=O)[C@H](CCC(N)=O)NC(=O)[C@H](CO)NC(=O)[C@H](C)NC(=O)[C@H](CCCCN)NC(=O)[C@H](Cc1c[nH]cn1)NC(=O)[C@H](Cc1c[nH]c2ccccc12)NC(=O)[C@H](CCC(N)=O)NC(=O)[C@H](CCCCN)NC(=O)[C@H](CCCCN)NC(=O)[C@H](CC(C)C)NC(=O)CNC(=O)[C@H](C)NC(=O)[C@@H](NC(=O)[C@H](CO)NC(=O)[C@@H](N)CCSC)C(C)C)C(=O)N[C@@H](CO)C(=O)NCC(=O)N[C@@H](C)C(N)=O	–	circular dichroism titration	25% DOPS/75% DOPC liposomes	50 µM, pH 7.4, 20 °C	–	ΔG of binding	-6.3 kcal/mol
Cc1c(Cc2cc(F)cc(OC(C)(C)C(=O)O)c2)c2ccc(C(=O)N[C@@H](C)c3cc(F)cc(C(C)(C)C)c3)cc2n1CC1CCC1	–	–	mouse liver microsomes	1 µM, added: microsomes 1 mg/mL	–	half-life	17 min
CC(C)(O)c1ncc([S@](N)(=O)=NC(=O)Nc2c3c(cc4c2CCC4)CCC3)s1	–	item: musculoskeletal, connective tissue	healthy human	oral, dose not given, all active doses pooled	–	subjects with TEAEs	6%
CN1CCC[C@]1(C)/C=C/S(=O)(=O)NC(=O)Nc1c2c(cc3c1CCC3)CCC2	–	item: laboratory investigations	human	oral, 50 mg twice daily, 14 days, multiple ascending dose	–	subjects with adverse event	16.7%
COc1ccc(Nc2nc(Nc3ccc(OCCOCC[18F])cc3)ncc2Br)cc1	–	–	ICR mice, S180 tumour	intravenous, 370 kBq, 120 min	reference: tumour over bone	uptake ratio	0.86
CN(O)C(=O)CCC(=O)NCCCN(CCCCN(CCCNC(=O)CCC(=O)N(C)O)C(=O)CCC(=O)N(C)O)C(=O)CCC(=O)N(C)O.[89Zr]	–	radio-TLC	aqueous buffer	7 d, pH 5, 37 °C, 89Zr-labelled complex, added: DTPA 1000-fold excess	–	intact complex	80.8 ± 1.8%
CC(C)[C@H](NC(=O)[C@H](Cc1c[nH]c2ccccc12)NC(=O)[C@H](CCCNC(=N)N)NC(=O)[C@H](CCCNC(=N)N)NC(=O)[C@@H](NC(=O)[C@@H](NC(=O)[C@H](CCCNC(=N)N)NC(=O)[C@@H](NC(=O)[C@@H](NC(=O)[C@H](CCCNC(=N)N)NC(=O)[C@H](CCCNC(=N)N)NC(=O)[C@@H](NC(=O)[C@H](Cc1c[nH]c2ccccc12)NC(=O)[C@H](CCCNC(=N)N)NC(=O)[C@H](CCCNC(=N)N)NC(=O)[C@@H](NC(=O)[C@H](CCCNC(=N)N)NC(=O)[C@H](CCCNC(=N)N)NC(=O)[C@@H](NC(=O)[C@H](Cc1c[nH]c2ccccc12)NC(=O)[C@H](CCCNC(=N)N)NC(=O)[C@@H](N)CCCNC(=N)N)C(C)C)C(C)C)C(C)C)C(C)C)C(C)C)C(C)C)C(C)C)C(=O)N[C@@H](CCCNC(=N)N)C(=O)N[C@@H](CCCNC(=N)N)C(=O)O	–	–	CD1 mouse, plasma	intravenous, 15 mg/kg, 16 h, [14C]-labelled compound	–	creatinine	< 0.2 mg/dL
CN1CCC[C@@H]1C(=O)N[C@@H](Cc1ccc(-c2ccccc2)cc1)B(O)O	–	–	NODscidIL2Rγnull mice, whole blood	oral, 50 mg/kg, 2 h, mean	–	blood concentration	730 ng/mL
CC1Cc2ccccc2N1C(=O)CN1CCN(Cc2ccccc2)CC1 (stereo not drawn)	–	–	female NMRI mice, brain	intraperitoneal, 10 mg/kg free base, 60 min	–	brain concentration	590 ng/mL
CC[C@H](C)[C@H](NC(=O)[C@H](CCCCN)NC(C)=O)C(=O)N[C@@H](C)C(=O)N[C@@H](C)C(=O)N[C@@H](CC(C)C)C(=O)N[C@@H](CCCCN)C(=O)N[C@@H](CCC(=O)O)C(=O)N[C@@H](CCCCN)C(=O)N[C@H](C(=O)N[C@H]1CSCc2cccc(c2)CSC[C@@H](C(=O)N[C@@H](CCCCN)C(=O)N[C@H](C(=O)N[C@@H](C)C(=O)N[C@@H](C)C(=O)N[C@@H](CC(C)C)C(=O)N[C@@H](CCCCN)C(=O)N[C@@H](CCC(=O)O)C(=O)NCC(=O)N[C@@H](Cc2c[nH]c3ccccc23)C(N)=O)[C@@H](C)CC)NC(=O)[C@H](CCCCN)NC(=O)[C@H](CC(C)C)NC(=O)[C@H](C)NC1=O)[C@@H](C)CC	–	tryptophan fluorescence titration	DOPC/DOPE/cholesterol 2:1:1 liposomes in PBS	–	–	ΔG of membrane partitioning	-6.68 kcal/mol
COc1ccc(CCN(C)CCCC(C#N)(c2ccc(OC)c(OC)c2)C(C)C)cc1OC (stereo not drawn)	Trypanosoma cruzi	reporter mRNA translation, inhibitor, item: Renilla luciferase mRNA	cell-free extract	concentration not given, test 2	reference: positive over negative control	translation activity	104%
Cc1noc(C)c1Cn1cc(N2C(=O)CN(Cc3cccc(O[C@@H]4O[C@H](C(=O)O)[C@@H](O)[C@H](O)[C@H]4O)c3)C2=O)cn1	–	–	Sprague-Dawley rat, male	oral, 10 mg/kg of parent drug, 1 h	–	plasma concentration	2540 ng/mL
CN(C)CCNc1ccc(-c2nn(C)c(=O)c3ccccc23)cc1[N+](=O)[O-]	Trypanosoma cruzi	reporter mRNA translation, inhibitor, item: capped polyadenylated Renilla luciferase mRNA	cell-free extract	concentration not given	reference: positive over negative control	translation activity	107% and 75.3% and 98.5% and 102%
O=C(O)CN1CCN(Cc2cccc(C(=O)O)n2)CCN(CP(=O)(O)O)CC1	–	potentiometric titration	–	second phosphonate deprotonation	–	log Ka	7.01
CC[C@H](C)[C@@H](C(=O)N[C@@H](CC(C)C)C(=O)N[C@@H](CO)C(=O)N[C@@H](CO)C(=O)N[C@H](C(=O)N[C@@H](CCC(=O)O)C(=O)N[C@H](C(=O)NCC(=O)N[C@@H](CO)C(=O)N[C@@H](CC(N)=O)C(=O)N[C@H](C(=O)N1C[C@H](O)C[C@H]1C(N)=O)[C@@H](C)O)C(C)C)[C@@H](C)O)N(C)C(=O)[C@H](C)NC(=O)CN(C)C(=O)[C@H](Cc1ccccc1)NC(=O)[C@H](CO)NC(=O)[C@H](CO)NC(=O)[C@H](CCCNC(=N)N)NC(=O)[C@H](CCC(N)=O)NC(=O)[C@H](CC(C)C)NC(=O)[C@H](Cc1ccccc1)NC(=O)[C@H](CCCC(=O)O)NC(=O)[C@H](C)NC(=O)[C@H](CC(C)C)NC(=O)[C@H](CCCNC(=N)N)NC(=O)[C@H](CCC(=O)O)NC(=O)[C@@H](NC(=O)[C@H](C)NC(=O)[C@@H]1CCCCNC(=O)C[C@H](NC(=O)[C@H](CCCNC(=N)N)NC(=O)CC[C@H](NC(=O)CCCCCCCCCCCCCCCCCCC(=O)O)C(=O)O)C(=O)NCC(=O)N[C@@H]([C@@H](C)O)C(=O)N[C@@H](C)C(=O)N[C@@H]([C@@H](C)O)C(=O)N1)[C@@H](C)O	–	SEC	formulation, Tris buffer, mannitol, NaCl	1 weeks, pH 6.6, 40 °C	–	covalent oligomers	≤ 0.2%
CCCCCCCCOCCCCCN1C[C@H](O)[C@@H](O)[C@H](O)[C@@H]1CO	Lysosomal acid glucosylceramidase (GBA1, Homo sapiens, UniProt P04062, R534H)	inhibitor, 4MU-β-D-glucopyranoside	–	added: 4MU-β-D-glucopyranoside	–	IC50	15 µM
N=C(N)NCCC[C@@H]1NC(=O)[C@H](CO)NC(=O)[C@@H](NC(=O)[C@H](CO)NC(=O)[C@H](CO)NC(=O)[C@H](Cc2c[nH]c3ccccc23)NC(=O)CNC(=O)[C@H](CO)NC(=O)[C@@H](N)Cc2c[nH]c3ccccc23)CSSC[C@@H](C(=O)NCC(=O)O)NC(=O)[C@H](CO)NC1=O	–	–	patients, plasma	intravenous, 10 mg/kg, thrice weekly, median	–	Cmax	6360 ng/mL
O=C(O)CN1CCN(CC(=O)O)CCN(CC(O)CN(CC(O)CN2CCN(CC(=O)O)CCN(CC(=O)O)CCN(CC(=O)O)CC2)C[C@H](O)[C@@H](O)[C@H](O)[C@H](O)CO)CCN(CC(=O)O)CC1 (stereo partly drawn)	–	pH-potentiometry	0.15 M NaCl	25 °C	–	log K CaL	12.9

For quick reference, copied from above:
SMILES	tested on	assay	test system	setting	how to read	endpoint	value
O=C(O)CN1CCN(Cc2cccc(C(=O)O)n2)CCN(CP(=O)(O)O)CC1	–	potentiometric titration	–	second phosphonate deprotonation	–	log Ka	7.01
CC(C)[C@H](NC(=O)[C@H](Cc1c[nH]c2ccccc12)NC(=O)[C@H](CCCNC(=N)N)NC(=O)[C@H](CCCNC(=N)N)NC(=O)[C@@H](NC(=O)[C@@H](NC(=O)[C@H](CCCNC(=N)N)NC(=O)[C@@H](NC(=O)[C@@H](NC(=O)[C@H](CCCNC(=N)N)NC(=O)[C@H](CCCNC(=N)N)NC(=O)[C@@H](NC(=O)[C@H](Cc1c[nH]c2ccccc12)NC(=O)[C@H](CCCNC(=N)N)NC(=O)[C@H](CCCNC(=N)N)NC(=O)[C@@H](NC(=O)[C@H](CCCNC(=N)N)NC(=O)[C@H](CCCNC(=N)N)NC(=O)[C@@H](NC(=O)[C@H](Cc1c[nH]c2ccccc12)NC(=O)[C@H](CCCNC(=N)N)NC(=O)[C@@H](N)CCCNC(=N)N)C(C)C)C(C)C)C(C)C)C(C)C)C(C)C)C(C)C)C(C)C)C(=O)N[C@@H](CCCNC(=N)N)C(=O)N[C@@H](CCCNC(=N)N)C(=O)O	–	–	CD1 mouse, plasma	intravenous, 15 mg/kg, 16 h, [14C]-labelled compound	–	creatinine	< 0.2 mg/dL
